Measurements collected from several papers.
Values joined by “and” are separate records of one study, mostly repeats; a detail may differ. ± gives the spread as reported.
GBA2: Beta-glucosidase (GBA2, Homo sapiens, UniProt Q9HCG7)
Chain of UniProt P11712 (whole entry, looked up): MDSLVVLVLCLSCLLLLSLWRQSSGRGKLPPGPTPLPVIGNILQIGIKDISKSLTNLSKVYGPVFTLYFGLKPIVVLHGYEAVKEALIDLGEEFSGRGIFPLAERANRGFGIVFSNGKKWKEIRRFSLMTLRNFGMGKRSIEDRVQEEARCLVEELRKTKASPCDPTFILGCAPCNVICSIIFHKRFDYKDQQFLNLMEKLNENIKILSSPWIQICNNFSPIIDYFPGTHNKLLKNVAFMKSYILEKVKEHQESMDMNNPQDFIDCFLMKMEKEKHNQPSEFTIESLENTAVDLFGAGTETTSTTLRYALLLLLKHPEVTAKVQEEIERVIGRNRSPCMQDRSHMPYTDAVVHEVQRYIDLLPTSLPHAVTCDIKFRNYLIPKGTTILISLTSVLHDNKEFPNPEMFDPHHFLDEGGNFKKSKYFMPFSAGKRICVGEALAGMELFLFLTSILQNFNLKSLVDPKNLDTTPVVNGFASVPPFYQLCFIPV
Chain of UniProt Q9HCG7 (whole entry, looked up): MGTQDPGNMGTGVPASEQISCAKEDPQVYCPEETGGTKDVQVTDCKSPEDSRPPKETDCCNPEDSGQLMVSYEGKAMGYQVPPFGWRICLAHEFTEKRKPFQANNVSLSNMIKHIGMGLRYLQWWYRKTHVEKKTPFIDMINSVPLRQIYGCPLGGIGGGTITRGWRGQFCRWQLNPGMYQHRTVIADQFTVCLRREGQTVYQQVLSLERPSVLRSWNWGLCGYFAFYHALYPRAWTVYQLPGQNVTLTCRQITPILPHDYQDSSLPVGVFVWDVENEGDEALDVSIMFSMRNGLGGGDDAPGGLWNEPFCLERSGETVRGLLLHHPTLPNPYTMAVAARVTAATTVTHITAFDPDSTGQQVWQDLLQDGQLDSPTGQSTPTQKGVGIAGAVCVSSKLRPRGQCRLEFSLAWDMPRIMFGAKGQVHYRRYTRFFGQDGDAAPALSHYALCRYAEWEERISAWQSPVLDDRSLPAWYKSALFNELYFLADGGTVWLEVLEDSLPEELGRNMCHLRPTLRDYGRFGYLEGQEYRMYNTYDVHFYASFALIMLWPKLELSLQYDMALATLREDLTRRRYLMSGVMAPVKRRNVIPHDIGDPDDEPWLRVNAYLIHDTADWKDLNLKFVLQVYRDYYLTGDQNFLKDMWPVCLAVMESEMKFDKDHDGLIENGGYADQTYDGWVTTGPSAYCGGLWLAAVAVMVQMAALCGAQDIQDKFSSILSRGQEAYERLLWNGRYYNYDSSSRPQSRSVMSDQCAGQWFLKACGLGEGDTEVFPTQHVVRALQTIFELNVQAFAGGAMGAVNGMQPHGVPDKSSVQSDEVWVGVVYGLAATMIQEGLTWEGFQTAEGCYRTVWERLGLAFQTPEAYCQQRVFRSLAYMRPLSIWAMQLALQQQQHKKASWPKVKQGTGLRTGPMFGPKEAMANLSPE
Chain of UniProt O75469 (whole entry, looked up): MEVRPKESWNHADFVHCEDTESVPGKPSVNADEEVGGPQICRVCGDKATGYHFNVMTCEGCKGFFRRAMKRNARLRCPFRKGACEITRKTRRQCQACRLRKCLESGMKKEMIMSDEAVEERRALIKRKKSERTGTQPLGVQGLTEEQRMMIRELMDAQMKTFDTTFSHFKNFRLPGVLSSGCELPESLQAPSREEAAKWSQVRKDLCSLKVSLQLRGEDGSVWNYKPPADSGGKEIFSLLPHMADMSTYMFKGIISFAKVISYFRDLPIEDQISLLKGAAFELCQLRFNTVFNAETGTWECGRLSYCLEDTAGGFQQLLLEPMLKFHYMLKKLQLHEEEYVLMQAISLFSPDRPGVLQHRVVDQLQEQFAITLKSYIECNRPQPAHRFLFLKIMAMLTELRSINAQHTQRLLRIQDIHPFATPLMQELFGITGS
Chain of UniProt P10632 (whole entry, looked up): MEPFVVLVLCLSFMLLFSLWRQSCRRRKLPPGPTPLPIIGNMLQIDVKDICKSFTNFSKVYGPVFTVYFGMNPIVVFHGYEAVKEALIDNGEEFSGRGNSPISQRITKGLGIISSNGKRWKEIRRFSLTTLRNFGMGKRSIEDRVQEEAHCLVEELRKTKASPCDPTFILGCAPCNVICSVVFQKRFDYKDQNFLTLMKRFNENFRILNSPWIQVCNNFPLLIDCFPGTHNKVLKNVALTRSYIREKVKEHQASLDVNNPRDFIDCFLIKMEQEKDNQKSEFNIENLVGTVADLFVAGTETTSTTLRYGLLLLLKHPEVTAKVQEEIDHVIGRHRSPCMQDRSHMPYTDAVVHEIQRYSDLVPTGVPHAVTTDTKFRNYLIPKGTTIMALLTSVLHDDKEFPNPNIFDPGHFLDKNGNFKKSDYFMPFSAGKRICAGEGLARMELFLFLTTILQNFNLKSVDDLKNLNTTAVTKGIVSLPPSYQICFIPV

Compound | target or system | assay | system | setting | scale | measurement | result
CC(C)Cc1ccc(C(C)C(=O)N[C@@H](CCCCNC(=O)CCOCCOCCOCCOCCOCCOCCNC(=O)CN2CCN(CC(=O)[O-])CCN(CC(=O)[O-])CCN(CC(=O)[O-])CC2)C(=O)Nc2cccc3c(C(=O)NCC(=O)N4CC(F)(F)C[C@H]4C#N)ccnc23)cc1.[177Lu+3] (stereo partly shown) | U-87 MG tumour model |  | host not given, blood | 4 h, tumour-bearing |  | tracer uptake | 8.8 %ID/g
CC(C)OCCOCc1ccc(OCC(O)CN(N=O)C(C)C)cc1 (stereo not shown) | Salmonella typhimurium | Ames test | TA100 | 5 µg/plate, without metabolic activation | relative to: solvent control | revertant fold increase | 0.9 fold
N#C[C@@H]1CC(F)(F)CN1C(=O)CNC(=O)c1ccnc2c(NC(=O)CCOCCOCCOCCOCCOCCOCCNC(=O)[C@H](CCCCNC(=O)CN3CCN(CC(=O)[O-])CCN(CC(=O)[O-])CCN(CC(=O)[O-])CC3)NC(=O)CCCc3ccc(I)cc3)cccc12.[177Lu+3] | U-87 MG tumour model |  | host not given, liver | 4 h, tumour-bearing |  | tracer uptake | 1.28 %ID/g
O=C1NC2(CC2)COc2ncc(F)cc2[C@H]2COCCN2c2ccn3ncc1c3n2 | Salmonella typhimurium | Ames test | TA97a | 1500 µg/plate, 48 h, added: rat liver S9 |  | revertant colonies | 105 ± 7 revertants/plate
OC[C@@H]1[C@@H](O)[C@H](O)[C@@H](O)CN1CCCCCOCc1cccc(-c2ccccc2)c1 | GBA2 | inhibitor, 4MU-β-D-glucopyranoside | HEK293T homogenates overexpressing GBA2 |  | relative to: GCS IC50 over GBA2 IC50 | selectivity ratio | 38
O=C1C2CC3CC1CC(C(=O)N1CCN(c4ccc([N+](=O)[O-])c5ncccc45)CC1)(C3)C2 | Salmonella typhimurium | Ames test | TA1535 | 0.05 µg/well, without S9 | relative to: vehicle | revertant fold increase | 0.4
COc1ccc(Cn2c(=O)n(O)c(=O)c3ccccc32)cc1 | MDCK |  | Caco-2 | 10 µM |  | Papp B→A | 2.2 ×10⁻⁶ cm/s
N#Cc1ccnc(N2C(=O)CC[C@H]2C(=O)N(c2cncc(F)c2)[C@H](C(=O)NC2CC(F)(F)C2)c2ccccc2Cl)c1 | NR1I2 (Homo sapiens, UniProt O75469) | reporter gene, agonist |  | 1 µM | relative to: rifampicin | activation | 2%
N#C[C@@H]1CC(F)(F)CN1C(=O)CNC(=O)c1ccnc2c(NC(=O)[C@H](CCCCNC(=O)CCOCCOCCOCCOCCOCCOCCNC(=O)CN3CCN(CC(=O)[O-])CCN(CC(=O)[O-])CCN(CC(=O)[O-])CC3)NC(=O)CCCc3ccc(I)cc3)cccc12.[177Lu+3] | U-87 MG tumour model |  | host not given, muscle | 96 h, tumour-bearing |  | tracer uptake | 0.05 %ID/g
COC1CN([C@H]2CC[C@H]([C@@]3(C)Oc4c(Cl)cc(C(=O)NCc5c(SC)cc(C)[nH]c5=O)c(C)c4O3)CC2)C1 |  | RNA-seq, item: PPM1E | human, whole blood | dose not given, 24 h | relative to: pretreatment baseline | log2 fold change | 3.67
CC[C@H](C)[C@H](NC(=O)C[C@H](NC(=O)CN1CCN2CCN(CC1)CC(=O)[O][Al]([18F])[O]C(=O)C2)C(=O)O)C(=O)N[C@H]1CCc2cccc3c2N(C1=O)[C@H](C(=O)NCc1cn[nH]n1)C3 | MC-38 tumour model |  | host not given, intestine | 30 min, tumour-bearing |  | tracer uptake | 0.5 %ID/g
COC(=O)Nc1nc2cc(C(O)c3ccc(F)cc3)ccc2[nH]1 (stereo not shown) | Salmonella typhimurium | Ames preincubation test | TA1535 | 109.4 µg/plate, without S9 |  | revertants | 19 revertants/plate
COc1cccc(OC)c1-c1cc(C(=O)NC2(C(=O)O)C3CC4CC(C3)CC2C4)nn1-c1ccc(C(=O)N(C)CCCN(C)C(=O)[C@H](CCCCNC(=O)[C@H](CC(C)C)NC(=O)C2OC2C(=O)O)NC(=O)CN2CCN(CC(=O)[O-])CCN(CC(=O)[O-])CCN(CC(=O)[O-])CC2)cc1C(C)C.[177Lu+3] (mixture of isomers) | HT-29 tumour model |  | host not given, bone | 72 h, tumour-bearing |  | tracer uptake | 0.13 %ID/g
OC[C@H]1[C@@H](O)[C@H](O)[C@@H](O)CN1CCCCCOCC(COCCCCCN1C[C@H](O)[C@@H](O)[C@H](O)[C@@H]1CO)C12CC3CC(CC(C3)C1)C2 (stereo partly shown) | GBA2 | inhibitor, 4MU-β-D-glucopyranoside | HEK293T homogenates overexpressing GBA2 |  | relative to: GCS IC50 over GBA2 IC50 | selectivity ratio | 67
CNC(=O)C1CCCN(C(=O)C2CC3CCC2N3C(=O)[C@@H]2C[C@@H](O)CN2C(=O)NCc2cccc(Cl)c2F)C1 (mixture of isomers) | Cytochrome P450 2C9 (CYP2C9, Homo sapiens, UniProt P11712) | preincubation without NADPH | human | 16.7 µM | relative to: negative control | remaining activity | 102% and 97.6% and 104%
O=S(=O)(NCc1ccncc1)c1ccc(C2CCCCC2)cc1 | human hepatocytes |  |  | 1 µM |  | CLint, scaled | 44.5 mL/min/kg
CCN(CC)CC#CCNc1ccnc2cc(Cl)ccc12 | Salmonella typhimurium | mini-Ames test | TA102 | 125.0 µg/well, without S9 |  | revertants | 70 revertants/well and 76 revertants/well
COCC1CN(C2CCN(c3cc(OC)c(Nc4ncc(Br)c(Nc5ccc6c(c5P(C)(C)=O)OCCO6)n4)cc3C)CC2)C1 |  |  | EGFR-mutant NSCLC patients, plasma | oral, 60 mg single dose, median |  | Tmax | 1.98 h
COc1cccc(OC)c1-c1cc(C(=O)NC2(C(=O)O)C3CC4CC(C3)CC2C4)nn1-c1ccc(C(=O)N(C)CCOCCN(C)C(=O)[C@H](CCCCNC(=O)[C@H](CC(C)C)NC(=O)C2OC2C(=O)O)NC(=O)CN2CCN(CC(=O)[O-])CCN(CC(=O)[O-])CCN(CC(=O)[O-])CC2)cc1C(C)C.[177Lu+3] (mixture of isomers) | HT-29 tumour model |  | host not given, blood | 24 h, tumour-bearing |  | tracer uptake | 0.4 %ID/g
N=C(N)NCCC[C@@H]1NC(=O)[C@H](CCCNC(=N)N)NC(=O)[C@@H](C(c2ccccc2)c2ccccc2)NC(=O)[C@H](Cc2c[nH]c3ccccc23)NC(=O)[C@@H](C(c2ccccc2)c2ccccc2)NC(=O)[C@@H](CCCNC(=N)N)NC(=O)[C@@H](CCCNC(=N)N)NC1=O | HEKa | cell growth or viability, MTS |  | 100 µg/mL, 24 h |  | viability | > 90%
CC[C@H](C)[C@H](NC(=O)[C@H](Cc1ccccc1)NC(=O)[C@H](CCC(=O)O)NC(=O)[C@H](CCCCN)NC(=O)[C@H](C)NC(=O)[C@H](C)NC(=O)[C@H](CCC(N)=O)NC(=O)CNC(=O)[C@H](CCC(=O)O)NC(=O)[C@H](CC(C)C)NC(=O)[C@H](Cc1ccc(O)cc1)NC(=O)[C@H](CO)NC(=O)[C@H](CO)NC(=O)[C@@H](NC(=O)[C@H](CC(=O)O)NC(=O)[C@H](CO)NC(=O)[C@@H](NC(=O)[C@H](Cc1ccccc1)NC(=O)[C@@H](NC(=O)CNC(=O)[C@H](CCC(=O)O)NC(=O)[C@H](C)NC(=O)[C@@H](N)Cc1c[nH]cn1)[C@@H](C)O)[C@@H](C)O)C(C)C)C(=O)N[C@@H](C)C(=O)N[C@@H](Cc1c[nH]c2ccccc12)C(=O)N[C@@H](CC(C)C)C(=O)N[C@H](C(=O)N[C@@H](CCCCN)C(=O)NCC(=O)N[C@@H](CCCN=C(N)N)C(=O)NCC(=O)O)C(C)C | DPP-4 (recombinant) | substrate, LC-MS |  | 500 µM, 24 h |  | remaining peptide | ~65%
C=CC(=O)Nc1cccc(Cn2ncc3cnc(Nc4cnn(CCOC)c4)nc32)c1 | human DLK | KINOMEscan |  | 100 nM | relative to: control | binding | 93%
C=CC(=O)Nc1cc(Nc2nccc(-c3cn(C)c4ccccc34)n2)c(OCC(F)(F)F)nc1N(C)CCNC | Cytochrome P450 2C8 (CYP2C8, Homo sapiens, UniProt P10632) | substrate |  | 3 µM, 60 min, 2C8 isoform, liver abundance-normalized |  | contribution to metabolite formation | 6.46%
C=C(NC(=O)c1csc(-c2nc3c(cc2O)-c2nc(cs2)C(=O)NC(C(C)O)C(=O)NC(=C(C)OC)c2nc(cs2)C(=O)NC2c4nc(cs4)C(=O)NC(COC(=O)c4c5c6c(cccc6n4O)COC(=O)C(OC4CC(C)(O)C(N(C)C)C(C)O4)C2OC5)c2nc-3cs2)n1)C(N)=O (stereo not shown) |  |  | Sprague-Dawley rat, female, plasma | intravenous infusion, 6 mg/kg, multiple doses, day 1 |  | Cmax | 4910 ng/mL
O=C(Oc1cc(OC(=O)c2cc(O)c(O)c(O)c2)c2ccccc2c1)c1cc(O)c(O)c(O)c1 | herpes simplex virus 2 | viral DNA RT-qPCR | 333 |  | CC50 over IC50 | therapeutic index | > 20

Repeated from above:
Compound | target or system | assay | system | setting | scale | measurement | result
CNC(=O)C1CCCN(C(=O)C2CC3CCC2N3C(=O)[C@@H]2C[C@@H](O)CN2C(=O)NCc2cccc(Cl)c2F)C1 (mixture of isomers) | Cytochrome P450 2C9 (CYP2C9, Homo sapiens, UniProt P11712) | preincubation without NADPH | human | 16.7 µM | relative to: negative control | remaining activity | 102% and 97.6% and 104%
CC(C)Cc1ccc(C(C)C(=O)N[C@@H](CCCCNC(=O)CCOCCOCCOCCOCCOCCOCCNC(=O)CN2CCN(CC(=O)[O-])CCN(CC(=O)[O-])CCN(CC(=O)[O-])CC2)C(=O)Nc2cccc3c(C(=O)NCC(=O)N4CC(F)(F)C[C@H]4C#N)ccnc23)cc1.[177Lu+3] (stereo partly shown) | U-87 MG tumour model |  | host not given, blood | 4 h, tumour-bearing |  | tracer uptake | 8.8 %ID/g
